# Measured values gathered from unrelated publications.
# Each line is one published result; not all experiments were run side by side. ± marks the error that the study gave. No end group written: not given here. The star is where a group is joined. *: point of attachment.
# Ryanodine receptor 1: Ryanodine receptor 1 (Oncorhynchus mykiss, UniProt A0A8C7UX14)
# CNR1: Cannabinoid receptor 1 (CNR1, Homo sapiens, UniProt P21554)
Molecule,target,test,test system,setting,how to read,measurement,value
CCCCCCCCCCC[C@@H](C[C@@H]1OC(=O)[C@H]1CCCCCC)OC(=O)[C@H](CC(C)C)NC=O,"Phosphatidylserine lipase ABHD16A (Homo sapiens, UniProt O95870)","enzyme activity, inhibitor",transfected HEK293T membrane proteome,"20 µM, 30 min",,PS lipase activity,inhibited
Clc1cccc(-c2cccc(Cl)c2Cl)c1,Ryanodine receptor 1,[3H]ryanodine binding,"rainbow trout, skeletal muscle microsomes",,,EC20,79.3 µM
COc1ccccc1Oc1ccc(C(=O)N[C@H](CN2CCN(c3cccc(O)c3)[C@@H](C)C2)C(C)C)cc1,"OPRD1 (Homo sapiens, UniProt P41143)",antagonist,CHO,with: DPDPE,,Ke,869 ± 200 nM
CC(=O)N[C@H]1[C@H](OCCN)O[C@H](CO)[C@@H](O[C@@H]2O[C@H](CO)[C@H](O)[C@H](O)[C@H]2NC(C)=O)[C@@H]1O,"Agglutinin (Sclerotinia sclerotiorum, UniProt A7XUK7)",glycan array,,"concentration not given, pH 7.4, room temperature",,lectin binding,21100 ± 348 RFU
O[C@@H](CN1CC[C@H](CCOC(c2ccccc2)c2ccccc2)[C@@H](O)C1)c1ccccc1,"Slc6a3 (Rattus norvegicus, UniProt P23977)","dopamine uptake, inhibitor",rat striatum,with: [3H]dopamine,,Ki,0.0184 µM
anthraquinone-neomycin,poly(dA)•2poly(dT) triplex DNA,isothermal titration calorimetry,,"concentration not given, pH 6.8, 5 °C, KCl 150 mM",,binding enthalpy,-14.5 ± 0.1 kcal/mol
Nc1ncnc2c1nc(N1CCCCC1)n2[C@@H]1O[C@@H]2COP(O)(=S)O[C@@H]2C1O (some centres unmarked),"cAMP-dependent protein kinase type II-beta regulatory subunit, holoenzyme with catalytic subunit (Prkar2b, Rattus norvegicus, UniProt P12369, S112A)","PKA holoenzyme activation, activator, fluorescence anisotropy",,,"reference: RIIβ over RIα, higher = RIIβ-selective",selectivity ratio,1.7
O=C(OCC1CCCN(CCCc2ccccc2)C1)c1ccccc1C(F)(F)F (centres unmarked),"Neuronal acetylcholine receptor; alpha4/beta2 (Homo sapiens, UniProt P17787+P43681)",,,concentration not given,reference: amide analogue over parent scaffold,potency fold change,2.1
"FLPK(Fmoc)-OH (Lys(Fmoc), C-acid; Fmoc = O=C(OCC1c2ccccc2-c2ccccc21)*)","Fibroblast growth factor 14, with Nav1.6 (Homo sapiens, UniProt Q92915)","FGF14-Nav1.6 complex formation, split-luciferase complementation",HEK293 expressing CLuc-FGF14 and CD4-Nav1.6-NLuc,"50 µM, 1 h, 37 °C, 0.5% DMSO",reference: DMSO,luminescence,129 ± 13%
Cc1cn([C@H]2C[C@H](O)[C@@H](COP(=O)(O)OP(=O)(O)OP(=O)(O)O)O2)c(=O)[nH]c1=O,"DNA polymerase IV, with DNA (dbh, Saccharolobus solfataricus, UniProt Q97W02)","nucleotide incorporation opposite dC, single-turnover extension of lesion bypass product",,"lesion bypass extension, with: 21/26-mer dG-C8-N-ABA primer-template",,misincorporation frequency,1.6%
C[C@H]1CCCC(=O)CCC/C=C/c2cc(O)cc(O)c2C(=O)O1,"zhd101 (Clonostachys rosea, UniProt Q8NKB0, V158H)","substrate, HPLC",,"10 min, pH 5.5, 37 °C, 1% acetonitrile",,Km,17 ± 1.16 mM
N=C(N)NCC(=O)NCC1(Nc2ccccc2)CCN(Cc2ccccc2)CC1,"Neuropeptide FF receptor 2 (Homo sapiens, UniProt Q9Y5X5)","receptor activation, agonist",,,,highest concentration inactive,≤ 1 µM
NC(=O)[C@@H]1CCCN1C(=O)C1(NC(=O)c2nn(Cc3ccc(F)cc3)c3ccccc23)CC1,CNR1,"calcium mobilization, agonist",CHO-K1 expressing Gαq16,,"reference: CP55,940 maximum",Emax,89 ± 3%
CCCC(C)Sc1nc2c([nH]1)c(=S)n(C)c(=O)n2C (centres unmarked),"PGR (Homo sapiens, UniProt P06401)","reporter gene, antagonist, MMTV-luciferase",T47D/A1-2,"10 µM, 24 h, with: 5 nM progesterone",reference: maximal activity,remaining activity,53%
O=S(=O)(c1cccc2c1OCCC2)N1CC(c2nc(-c3ccc(F)cc3)no2)C1,"Calcium-activated potassium channel subunit alpha-1, with beta-3 subunit (KCNMA1, Homo sapiens, UniProt Q12791)",,HEK293,30 µM,,activity,inactive
CCCCSS(C)(=O)=O,"Gabrg2/GABRB2/Gabra1 (Rattus norvegicus, UniProt P18508+P47870+P62813, C260A/C282A/C312A/C319A/C341A/L258C)","covalent modifier, two-electrode voltage clamp",Xenopus laevis oocytes,"0.5 mM, labelled without GABA, with: GABA EC10",reference: before labelling,GABA current,no effect
O=[N+]([O-])c1ccc2c(c1)S(=O)(=O)C=C2,"Fibroblast growth factor 14/SCN8A, Nav1.6 C-terminal tail (Homo sapiens, UniProt Q92915+Q9UQD0)","FGF14-Nav1.6 complex formation, luciferase complementation",HEK293 stably expressing both,30 µM,reference: DMSO,luminescence,6%
O=c1c(I)ccc2n1C[C@@H]1CNC[C@H]2C1,"α4β2* nAChR, mouse",,"DBA/2J mice, hippocampus membranes","intravenous infusion, 0.2 mg/kg/h, 7 days",reference: saline,increase in binding sites,96.1 ± 12.1%
Clc1cc(Cl)c(-c2c(Cl)c(Cl)cc(Cl)c2Cl)cc1Cl,Ryanodine receptor 1,[3H]ryanodine binding,"rainbow trout, skeletal muscle microsomes",,,EC20,7.11 µM
NC(=O)CN1CCC[C@H](NC(=O)c2nn(Cc3ccc(F)cc3)c3ccccc23)C1,CNR1,"calcium mobilization, agonist",CHO-K1 expressing Gαq16,,"reference: CP55,940 maximum",Emax,115 ± 6%
Nc1nc2c(ncn2[C@@H]2O[C@@H]3COP(=O)(O)O[C@H]4[C@@H](O)[C@H](n5cnc6c(=O)[nH]c(N)nc65)O[C@@H]4COP(=O)(O)O[C@H]3[C@H]2O)c(=O)[nH]1,"gdpP, residues 84-659 (Bacillus subtilis, UniProt P37484)","substrate, HPLC",,"100 µM, 37 °C, upper limit if undegraded 24 h, with: enzyme 1 µM",,degradation rate,0.8 ± 0.1 mol/min/mol enzyme
COC(=O)Nc1cc(CC2c3cc(NC(=O)OC)c(OC)cc3CCN2CC(=O)NCc2ccccc2)ccc1OC (centres unmarked),"HCRTR1 (Homo sapiens, UniProt O43613)",,human cells,concentration not given,,activity,inactive
DNRDGNVYYF,"Serine endoprotease DegS (degS, Escherichia coli, UniProt P0AEE3)",substrate,peptide,"23 °C, with: OMP peptide",,Hill coefficient,1.6 ± 0.2
CC(C)c1ccc(NC(=O)Oc2ccc3c(c2)[C@]2(C)CCN[C@@H]2N3)cc1,"Cholinesterase (BCHE, Homo sapiens, UniProt P06276)","inhibitor, immobilized enzyme reactor, HPLC-UV",immobilized recombinant human enzyme,"30 °C, after near-complete inhibition",,decarbamoylation rate constant k3,0.501 ± 0.006 h⁻¹
C[C@H]1O[C@@H](n2cnc3c(N)ncnc32)[C@H](O)[C@@H]1O,"bioB (Escherichia coli, UniProt P12996)","enzyme activity, inhibitor",,500 µM,,remaining activity,45%
CN(C(=O)n1cnc(-c2ccc[n+]([O-])c2)c1)C1CCCCC1,"Faah (Mus musculus, UniProt O08914)","enzyme activity, ex vivo","mouse, liver","oral, 0.1 mg/kg, 48 h",reference: vehicle,remaining activity,72.5%
NC(=O)C1=CN([C@@H]2O[C@H](COP(=O)(O)OP(=O)(O)OC[C@H]3O[C@@H](n4cnc5c(N)ncnc54)[C@H](O)[C@@H]3O)[C@@H](O)[C@H]2O)C=CC1,S-adenosylhomocysteine hydrolase Trypanosoma cruzi K431A,,,"concentration not given, enzyme as isolated",detection limit,active-site occupancy,< 0.1%
CN(Cc1cnc2nc(N)nc(N)c2n1)c1ccc(C(=O)N[C@@H](CCC(=O)O)C(=O)O)cc1,"Rhodopsin (Rho, Mus musculus, UniProt P15409, P23H)",immunostaining imaging,NIH3T3 (RHO P23H-GFP),"concentration not given, with: MG-132 5 µM",,rhodopsin P23H level,no effect
"Ac-LDEVD-pNA (N-acetyl, C-pNA; pNA = O=[N+]([O-])c1ccc(N*)cc1)","Caspase-8 (CASP8, Homo sapiens, UniProt Q14790)","substrate hydrolysis, substrate, colorimetric",,pH 7.5,,kcat,0.15 ± 0.0167 s⁻¹
Clc1ccc(Cl)c(-c2cccc(Cl)c2Cl)c1,Ryanodine receptor 1,[3H]ryanodine binding,"rainbow trout, skeletal muscle microsomes",up to 20 µM,reference: DMSO,Emax,170 ± 3.5%
O=C(c1ccc(-n2nc(C(F)(F)F)c3c2CCCC3)cc1)N1CCCC1,"receptors, ion channels, transporters",CEREP panel,,concentration not given,,binding,no binding
CCOC(=O)CNC(=O)[C@@H]1CCC/C1=C/[C@@H]1CCCN1C(=O)CNS(=O)(=O)c1cccc2c(N(C)C)cccc12,"Prolyl 4-hydroxylase subunit alpha-1, with P4HB subunit (P4HA1, Homo sapiens, UniProt P13674)",noncompetitive inhibitor,,"pH 7.8, 30 °C, with: α-ketoglutarate (varied)",,Kii,18 ± 8 µM
COc1cc2c3c(c1OC)Oc1ccc(cc1)C[C@@H]1c4c(cc(OC)c(OC)c4Oc4ccc(cc4)C[C@H]3N(C)CC2)CCN1C,"Heat shock protein HSP 90-alpha, C-terminal domain (HSP90AA1, Homo sapiens, UniProt P07900)","binding, zonal affinity chromatography",,"pH 7.4, 25 °C",,retention time,17.3 min
CC(C)(NC(=O)c1nn(Cc2ccc(F)cc2)c2ccccc12)C1CCN(CC(N)=O)CC1,CNR1,"calcium mobilization, agonist",CHO-K1 expressing Gαq16,,"reference: CP55,940 maximum",Emax,109 ± 6%
KQTARKSTGGWW (butyryl-Lys9),"HDAC8 (Homo sapiens, UniProt Q9BY41)","substrate, HPLC",peptide,"1 µM, 1 h, pH 8, 37 °C",,kcat/Km,12.6 ± 0.3 M⁻¹ s⁻¹

# Excerpt of the above:
Molecule,target,test,test system,setting,how to read,measurement,value
O=c1c(I)ccc2n1C[C@@H]1CNC[C@H]2C1,"α4β2* nAChR, mouse",,"DBA/2J mice, hippocampus membranes","intravenous infusion, 0.2 mg/kg/h, 7 days",reference: saline,increase in binding sites,96.1 ± 12.1%
Clc1cc(Cl)c(-c2c(Cl)c(Cl)cc(Cl)c2Cl)cc1Cl,Ryanodine receptor 1,[3H]ryanodine binding,"rainbow trout, skeletal muscle microsomes",,,EC20,7.11 µM
NC(=O)CN1CCC[C@H](NC(=O)c2nn(Cc3ccc(F)cc3)c3ccccc23)C1,CNR1,"calcium mobilization, agonist",CHO-K1 expressing Gαq16,,"reference: CP55,940 maximum",Emax,115 ± 6%
Nc1nc2c(ncn2[C@@H]2O[C@@H]3COP(=O)(O)O[C@H]4[C@@H](O)[C@H](n5cnc6c(=O)[nH]c(N)nc65)O[C@@H]4COP(=O)(O)O[C@H]3[C@H]2O)c(=O)[nH]1,"gdpP, residues 84-659 (Bacillus subtilis, UniProt P37484)","substrate, HPLC",,"100 µM, 37 °C, upper limit if undegraded 24 h, with: enzyme 1 µM",,degradation rate,0.8 ± 0.1 mol/min/mol enzyme
